Results of several laboratories.
Lines come from different studies, so protocols differ. Several values in a cell are separate wells, animals, samples, runs or records. Numbers after ± are the reported error.

| SMILES | test | system | setting | scale | measurement | result |
| --- | --- | --- | --- | --- | --- | --- |
| N=C(N)NCCC[C@@H](NC(=O)[C@H](N)Cc1c[nH]c2ccccc12)C(=O)N[C@H](CCCCN)C(=O)N[C@H](Cc1c[nH]c2ccccc12)C(=O)N[C@H](CCCNC(=N)N)C(=O)N[C@H](CCCCN)C(=O)N[C@H](Cc1c[nH]c2ccccc12)C(=O)N[C@H](CCCNC(=N)N)C(=O)N[C@H](CCCCN)C(=O)N[C@H](Cc1c[nH]c2ccccc12)C(=O)N[C@H](CCCNC(=N)N)C(=O)N[C@H](CCCCN)C(N)=O | – | mouse, serum | 30 mg/kg | – | cystatin C level | 40.2 ng/mL |
| C[C@]12COc3ccc(OCc4ccccc4)cc3[C@H]1CCN2 | lipid PAMPA | PBS | 10 µM, 16 h, pH 7.4, 25 °C | – | permeability (Pe) | 5.01 ×10⁻⁶ cm/s |
| CN1Cc2cc(Cl)ccc2-n2c(nnc2C2CCN(c3cccc([18F])n3)CC2)C1 | PET two-tissue compartment model | rhesus monkey, cerebellum | intravenous, dose not given, 80 min scan, baseline scan | – | total volume of distribution | 0.88 ± 0.32 mL/cm3 |
| CC(C)Oc1c(NC(=O)c2ccc(NC(=O)[C@H](CC(N)=O)NC(=O)c3ccc(/N=N/c4ccccc4)cc3)cc2)ccc(C(=O)Nc2ccc(C(=O)O)cc2)c1O | absorbance kinetics | – | 40 °C, photostationary to ground state | – | thermal relaxation half-life | 7.4 h |
| CSCC[C@H](NC(=O)CNC(=O)[C@H](CCCCN)NC(=O)[C@H](CC(C)C)NC(=O)[C@@H]1CCCN1C(=O)[C@H](CO)NC(=O)[C@H](Cc1c[nH]cn1)NC(=O)[C@H](Cc1c[nH]c2ccccc12)NC(=O)[C@H](CCCNC(=N)N)NC(=O)[C@H](CC(C)C)NC(=O)[C@H](CCCNC(=N)N)NC(=O)[C@H](Cc1c[nH]c2ccccc12)NC(=O)[C@H](CS)NC(=O)CCCCCNC(=O)CN1CCN(CC(=O)O)CCN(CC(=O)O)CCN(CC(=O)O)CC1)C(=O)O [copper-64 labelled] | – | BALB/c nude mouse, Huh-7 tumour, tumour and muscle | intravenous, 1.85 MBq, 2 h, ex vivo biodistribution | baseline: tumour over muscle | tumour-to-muscle ratio | 8.42 |
| COC(=O)[C@H]1[C@@H](c2ccc(Cl)c(Cl)c2)C[C@@H]2CC[C@H]1N2CCOc1ccc2cc3ccccc3cc2c1 | fluorometric titration | – | 1 µM, 10% DMSO | – | pKa | 6.6 |
| COc1ccc(C([O-])=CC(=O)c2ccc(C(C)(C)C)cc2)cc1.[Ru+2].c1ccc(-c2cccc(-c3ccccn3)n2)nc1.c1cnccn1 | – | zebrafish larvae | 10 µM, 48 h, dark | baseline: normal | viability | 0% |
| CCCCCCCCCC(=O)N[C@@H](CCCNC(=N)N)C(=O)N[C@@H](Cc1c[nH]c2ccccc12)C(=O)N[C@@H](CCCCN)C(=O)N[C@H](C(=O)N[C@@H](Cc1ccccc1)C(=O)N[C@@H](CCCCN)C(=O)N[C@@H](CCCCN)C(=O)N[C@H](C(=O)N[C@@H](CCC(=O)O)C(=O)N[C@@H](CCCCN)C(=O)N[C@H](C(=O)NCC(=O)N[C@@H](CCC(N)=O)C(=O)N[C@@H](CC(N)=O)C(=O)N[C@H](C(=O)N[C@@H](CCCNC(=N)N)C(=O)N[C@@H](CC(=O)O)C(=O)NCC(=O)N[C@H](C(=O)N[C@H](C(=O)N[C@@H](CCCCN)C(=O)N[C@@H](C)C(=O)NCC(=O)N1CCC[C@H]1C(=O)N[C@@H](C)C(=O)N[C@H](C(=O)N[C@@H](C)C(=O)N[C@H](C(=O)N[C@H](C(=O)NCC(=O)N[C@@H](CCC(N)=O)C(=O)N[C@@H](C)C(=O)N[C@@H](C)C(=O)N[C@H](C(=O)N[C@H](C(N)=O)[C@@H](C)CC)[C@@H](C)O)C(C)C)C(C)C)C(C)C)C(C)C)[C@@H](C)CC)[C@@H](C)CC)C(C)C)[C@@H](C)CC)[C@@H](C)CC | CD spectroscopy | 50% TFE in water | room temperature | – | helical content | 41.7% |
| CC(C)=CCC/C(C)=C\CCn1cc(CC(C)(P(=O)(O)O)P(=O)(O)O)nn1 | – | mouse CD-1 | intravenous, 0.3 mg/kg, 2 h | baseline: dose | biliary excretion | 0.75% |
| CC(C)[C@@H]1NC(=O)CNC(=O)[C@H](CC(N)=O)NC(=O)[C@H](CCCNC(=N)N)NC(=O)[C@H](Cc2ccc(O)cc2)NC(=O)[C@H](C(C)C)NC(=O)[C@@H](NC(=O)[C@@H](NC(=O)[C@H](CC(N)=O)NC(=O)[C@H](Cc2c[nH]c3ccccc23)NC(=O)[C@H](C)NC(=O)[C@H](Cc2ccccc2)NC(=O)CNC(=O)[C@H](CCCCN)NC(=O)[C@H](Cc2ccccc2)NC(=O)[C@H](Cc2ccccc2)NC(=O)[C@H](CCCCN)NC(=O)OCC2c3ccccc3-c3ccccc32)C(C)C)CSSC[C@@H](C(=O)N[C@@H](Cc2c[nH]cn2)C(=O)N[C@@H](CCCNC(=N)N)C(=O)N[C@@H](CCCNC(=N)N)C(=O)N[C@@H](C)C(=O)N[C@@H](CC(N)=O)C(N)=O)NC(=O)[C@H](C(C)C)NC(=O)[C@H](CCCNC(=N)N)NC1=O | – | ICR mice, serum | intraperitoneal, 10 mg/kg, day 5 | – | globulin | 18.82 ± 0.04 g/L |
| CC[C@H](C)[C@H](NC(=O)[C@H](CCCCN)NC(=O)CNC(=O)[C@H](CC(C)C)NC(=O)[C@H](Cc1ccccc1)NC(=O)[C@H](CCCCN)NC(=O)[C@H](CO)NC(=O)[C@H](Cc1ccccc1)NC(=O)[C@H](Cc1c[nH]c2ccccc12)NC(=O)[C@H](CCC(N)=O)NC(=O)[C@@H](NC(=O)[C@H](Cc1ccccc1)NC(=O)CCCCCNC(=O)CN1CCN(CC(=O)O)CCN(CC(=O)O)CCN(CC(=O)O)CC1)C(C)C)C(=O)N[C@@H](CCC(=O)O)C(=O)N1CCC[C@H]1C(=O)N[C@@H](CC(=O)O)C(=O)N[C@H](C(=O)N[C@@H](CO)C(=O)N[C@@H](CCC(N)=O)C(=O)N[C@H](C(=O)N[C@@H](CCC(N)=O)C(=O)N[C@@H](CC(=O)O)C(=O)N1CCC[C@H]1C(=O)N[C@@H](CC(N)=O)C(=O)N[C@@H](CC(=O)O)C(=O)N[C@@H](CCC(N)=O)C(=O)N[C@@H](Cc1ccc(O)cc1)C(=O)N[C@@H](CCC(=O)O)C(=O)N1CCC[C@H]1C(=O)N[C@@H](Cc1ccccc1)C(=O)O)C(C)C)C(C)C [copper-64 labelled] | dynamic PET | mouse both sexes, CT26 tumour, untreated, tumour | intravenous, 100 µCi/mouse, 690 s | – | SUVmean | 1.14 SUV |
| COc1ccc(CNc2ccc3c(c2)S(=O)(=O)C=C3)cc1 | – | male C57BL/6 mice, blood | intraperitoneal, 20 mg/kg, day 8, group average | – | red cell distribution width SD | 31.8 fL |
| O=C1NC2(CC2)COc2ncc(F)cc2[C@H]2COCCN2c2ccn3ncc1c3n2 | – | Sprague-Dawley rat, female, thymus | oral, 2.5 mg/kg/day, 4 weeks dosing, end of recovery | – | organ-to-brain weight ratio | 20.4 ± 3.18% |
| CC[C@H](C)[C@H](NC(=O)[C@H](Cc1c[nH]cn1)NC(=O)[C@H](CCCCN)NC(=O)[C@H](C)NC(=O)[C@H](C)NC(=O)[C@H](Cc1c[nH]cn1)NC(=O)[C@H](CCCNC(=N)N)NC(=O)CNC(=O)[C@H](Cc1c[nH]cn1)NC(=O)[C@H](CCCCN)NC(=O)[C@H](Cc1ccccc1)NC(=O)[C@@H](NC(=O)[C@H](CO)NC(=O)CNC(=O)[C@H](Cc1c[nH]c2ccccc12)NC(=O)CN)[C@@H](C)CC)C(=O)NCC(=O)N[C@@H](Cc1c[nH]cn1)C(=O)N[C@@H](C)C(=O)N[C@@H](C)C(=O)N[C@H](C(=O)N[C@@H](CC(N)=O)C(=O)N[C@@H](Cc1c[nH]cn1)C(=O)N[C@@H](Cc1ccc(O)cc1)C(=O)N[C@@H](CC(C)C)C(N)=O)C(C)C | – | zebrafish embryos 4 hpf, E3 medium | 24 h | – | chronic toxic concentration | 5 µM |
| COc1cnc2cccc(N3CCc4c(cc(Cn5ccnc5)cc4-c4cn(C)nc4C(F)(F)F)C3=O)c2c1 | – | CD-1 mouse | intraperitoneal, 50 mg/kg once daily, day 3, dose-escalation tolerability | baseline: day 1 | body weight change | 4% |
| CSCC[C@H](N)C(=O)N[C@@H](C)C(=O)N[C@@H](CCCNC(=N)N)C(=O)N[C@@H](CCCNC(=N)N)C(=O)N[C@@H](CC(=O)O)C(=O)N[C@@H](CCCCN)C(=O)N[C@H](C(=O)N[C@@H](CC(=O)O)C(=O)N[C@@H](Cc1ccccc1)C(=O)N[C@@H](C)C(=O)N[C@@H](CCCNC(=N)N)C(=O)N[C@@H](CCCNC(=N)N)C(=O)N[C@@H](CCCNC(=N)N)C(=O)N[C@@H](CCCNC(=N)N)C(=O)NCCCCCC(=O)NCCCCC(NC(=O)CCCCCNC(=O)[C@H](CCCNC(=N)N)NC(=O)[C@H](CCCNC(=N)N)NC(=O)[C@H](CCCNC(=N)N)NC(=O)[C@H](CCCNC(=N)N)NC(=O)[C@H](C)NC(=O)[C@H](Cc1ccccc1)NC(=O)[C@H](CC(=O)O)NC(=O)[C@@H](NC(=O)[C@H](CCCCN)NC(=O)[C@H](CC(=O)O)NC(=O)[C@H](CCCNC(=N)N)NC(=O)[C@H](CCCNC(=N)N)NC(=O)[C@H](C)NC(=O)[C@@H](N)CCSC)[C@@H](C)O)C(=O)NCCCCC(NC(=O)C(CCCCNC(=O)CCCCCNC(=O)[C@H](CCCNC(=N)N)NC(=O)[C@H](CCCNC(=N)N)NC(=O)[C@H](CCCNC(=N)N)NC(=O)[C@H](CCCNC(=N)N)NC(=O)[C@H](C)NC(=O)[C@H](Cc1ccccc1)NC(=O)[C@H](CC(=O)O)NC(=O)[C@@H](NC(=O)[C@H](CCCCN)NC(=O)[C@H](CC(=O)O)NC(=O)[C@H](CCCNC(=N)N)NC(=O)[C@H](CCCNC(=N)N)NC(=O)[C@H](C)NC(=O)[C@@H](N)CCSC)[C@@H](C)O)NC(=O)CCCCCNC(=O)[C@H](CCCNC(=N)N)NC(=O)[C@H](CCCNC(=N)N)NC(=O)[C@H](CCCNC(=N)N)NC(=O)[C@H](CCCNC(=N)N)NC(=O)[C@H](C)NC(=O)[C@H](Cc1ccccc1)NC(=O)[C@H](CC(=O)O)NC(=O)[C@@H](NC(=O)[C@H](CCCCN)NC(=O)[C@H](CC(=O)O)NC(=O)[C@H](CCCNC(=N)N)NC(=O)[C@H](CCCNC(=N)N)NC(=O)[C@H](C)NC(=O)[C@@H](N)CCSC)[C@@H](C)O)C(N)=O)[C@@H](C)O (some centres unmarked) | – | C57BL/6 mouse female, stomach | dose not given, 6 h | baseline: total | tissue distribution | 60.4% and 38.3% and 43.1% |
| COc1nc(CC=C(C)CC=CC(C)=CC(C)C(OC2OC(CO)C(O)C(O)C2O)C(C)=CCO)c(C)c(O)c1OC (centres unmarked) | – | C57BL/6 mouse, plasma | oral, 10 mg/kg | – | AUC(0-t) | 48.3 ng·h/mL |

Repeated from above:
| SMILES | test | system | setting | scale | measurement | result |
| --- | --- | --- | --- | --- | --- | --- |
| CC(C)Oc1c(NC(=O)c2ccc(NC(=O)[C@H](CC(N)=O)NC(=O)c3ccc(/N=N/c4ccccc4)cc3)cc2)ccc(C(=O)Nc2ccc(C(=O)O)cc2)c1O | absorbance kinetics | – | 40 °C, photostationary to ground state | – | thermal relaxation half-life | 7.4 h |
| CSCC[C@H](N)C(=O)N[C@@H](C)C(=O)N[C@@H](CCCNC(=N)N)C(=O)N[C@@H](CCCNC(=N)N)C(=O)N[C@@H](CC(=O)O)C(=O)N[C@@H](CCCCN)C(=O)N[C@H](C(=O)N[C@@H](CC(=O)O)C(=O)N[C@@H](Cc1ccccc1)C(=O)N[C@@H](C)C(=O)N[C@@H](CCCNC(=N)N)C(=O)N[C@@H](CCCNC(=N)N)C(=O)N[C@@H](CCCNC(=N)N)C(=O)N[C@@H](CCCNC(=N)N)C(=O)NCCCCCC(=O)NCCCCC(NC(=O)CCCCCNC(=O)[C@H](CCCNC(=N)N)NC(=O)[C@H](CCCNC(=N)N)NC(=O)[C@H](CCCNC(=N)N)NC(=O)[C@H](CCCNC(=N)N)NC(=O)[C@H](C)NC(=O)[C@H](Cc1ccccc1)NC(=O)[C@H](CC(=O)O)NC(=O)[C@@H](NC(=O)[C@H](CCCCN)NC(=O)[C@H](CC(=O)O)NC(=O)[C@H](CCCNC(=N)N)NC(=O)[C@H](CCCNC(=N)N)NC(=O)[C@H](C)NC(=O)[C@@H](N)CCSC)[C@@H](C)O)C(=O)NCCCCC(NC(=O)C(CCCCNC(=O)CCCCCNC(=O)[C@H](CCCNC(=N)N)NC(=O)[C@H](CCCNC(=N)N)NC(=O)[C@H](CCCNC(=N)N)NC(=O)[C@H](CCCNC(=N)N)NC(=O)[C@H](C)NC(=O)[C@H](Cc1ccccc1)NC(=O)[C@H](CC(=O)O)NC(=O)[C@@H](NC(=O)[C@H](CCCCN)NC(=O)[C@H](CC(=O)O)NC(=O)[C@H](CCCNC(=N)N)NC(=O)[C@H](CCCNC(=N)N)NC(=O)[C@H](C)NC(=O)[C@@H](N)CCSC)[C@@H](C)O)NC(=O)CCCCCNC(=O)[C@H](CCCNC(=N)N)NC(=O)[C@H](CCCNC(=N)N)NC(=O)[C@H](CCCNC(=N)N)NC(=O)[C@H](CCCNC(=N)N)NC(=O)[C@H](C)NC(=O)[C@H](Cc1ccccc1)NC(=O)[C@H](CC(=O)O)NC(=O)[C@@H](NC(=O)[C@H](CCCCN)NC(=O)[C@H](CC(=O)O)NC(=O)[C@H](CCCNC(=N)N)NC(=O)[C@H](CCCNC(=N)N)NC(=O)[C@H](C)NC(=O)[C@@H](N)CCSC)[C@@H](C)O)C(N)=O)[C@@H](C)O (some centres unmarked) | – | C57BL/6 mouse female, stomach | dose not given, 6 h | baseline: total | tissue distribution | 60.4% and 38.3% and 43.1% |
| C[C@]12COc3ccc(OCc4ccccc4)cc3[C@H]1CCN2 | lipid PAMPA | PBS | 10 µM, 16 h, pH 7.4, 25 °C | – | permeability (Pe) | 5.01 ×10⁻⁶ cm/s |
